# Measurements of several laboratories.
# Numbers after ± are the reported error.
# Organism: Leishmania donovani
Substance,test,test system,conditions,IC50
CN1CCCN2CCN(CCCN(Cc3ccccc3)CC2)CC1,"parasite growth, resazurin",,"72 h, amastigote",> 20 µM
COc1cc2c(=O)c(C(=O)NCCNCCO)cn(Cc3ccccc3)c2cc1OCc1cccc(F)c1,,Bob promastigotes,120 h,> 20 µM
c1ccc(CN2CCN3CCCN(CC2)CCN(Cc2ccccc2)CC3)cc1,"parasite growth, resazurin",,"72 h, amastigote",> 25 µM
O=Cc1cn(Cc2ccccc2)c2ccc([N+](=O)[O-])cc12,"parasite growth, resazurin",,promastigote,> 100 µM
c1ccc(CN2CCCNCCN(Cc3ccccc3)CCCNCC2)cc1,"parasite growth, resazurin",,"72 h, promastigote",9.4 µM
O=Cc1cn(Cc2cccc(Cl)c2)c2ccc([N+](=O)[O-])cc12,"parasite growth, resazurin",THP-1,"24 h, intracellular, amastigote",> 10 µM
meglumine antimoniate,,,intracellular amastigotes,33.3 ± 1.2 µM
CN1CCN2CCN(CC1)CCN(Cc1ccccc1)CC2,,"THP-1-derived macrophages, intracellular amastigotes",,> 20 µM
O=Cc1cn(Cc2ccc(F)cc2)c2ccc([N+](=O)[O-])cc12,"parasite growth, resazurin",,promastigote,92.5 µM
c1ccc(Oc2ccc(Nc3c4c(nc5ccccc35)CCC4)cc2)cc1,,"DD8 resistant line, promastigotes",,8.93 ± 0.67 µM
Cc1ccc(Cn2cc(C=O)c3cc([N+](=O)[O-])ccc32)cc1,"parasite growth, resazurin",THP-1,"72 h, intracellular, amastigote",> 10 µM
C[C@H]1N[C@@H](CCCCCCCCCCC2=C[C@@H](CCCCCCCCCC[C@H]3CC[C@@H](O)[C@@H](C)N3)[C@@H]3CCCN3C2)CC[C@H]1O,parasite growth,THP-1,"intracellular, amastigote",0.79 mg/L

# Some of these lines once more:
Substance,test,test system,conditions,IC50
c1ccc(CN2CCN3CCCN(CC2)CCN(Cc2ccccc2)CC3)cc1,"parasite growth, resazurin",,"72 h, amastigote",> 25 µM
